Measured values pooled from the literature.
Numbered parts are unrelated; each lists some results of a single study. Values joined by “and” are separate records of one study, mostly repeats; a detail may differ.
Chain of UniProt P06241 (whole entry, looked up): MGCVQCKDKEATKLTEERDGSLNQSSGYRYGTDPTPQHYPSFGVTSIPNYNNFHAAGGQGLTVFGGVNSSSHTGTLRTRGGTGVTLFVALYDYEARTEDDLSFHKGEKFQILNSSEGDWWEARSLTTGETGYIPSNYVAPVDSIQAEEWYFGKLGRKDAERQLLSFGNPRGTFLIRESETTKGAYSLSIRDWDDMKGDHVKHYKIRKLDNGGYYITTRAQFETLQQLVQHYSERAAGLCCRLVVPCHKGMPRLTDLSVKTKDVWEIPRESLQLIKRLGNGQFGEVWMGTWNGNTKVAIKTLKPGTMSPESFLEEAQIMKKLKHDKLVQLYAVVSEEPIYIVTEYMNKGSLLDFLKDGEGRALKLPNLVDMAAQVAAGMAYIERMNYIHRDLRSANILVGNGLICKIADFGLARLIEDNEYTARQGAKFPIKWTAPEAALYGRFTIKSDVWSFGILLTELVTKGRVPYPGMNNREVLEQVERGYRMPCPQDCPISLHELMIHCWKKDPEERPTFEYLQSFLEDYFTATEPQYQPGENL
Chain of UniProt P07948 (whole entry, looked up): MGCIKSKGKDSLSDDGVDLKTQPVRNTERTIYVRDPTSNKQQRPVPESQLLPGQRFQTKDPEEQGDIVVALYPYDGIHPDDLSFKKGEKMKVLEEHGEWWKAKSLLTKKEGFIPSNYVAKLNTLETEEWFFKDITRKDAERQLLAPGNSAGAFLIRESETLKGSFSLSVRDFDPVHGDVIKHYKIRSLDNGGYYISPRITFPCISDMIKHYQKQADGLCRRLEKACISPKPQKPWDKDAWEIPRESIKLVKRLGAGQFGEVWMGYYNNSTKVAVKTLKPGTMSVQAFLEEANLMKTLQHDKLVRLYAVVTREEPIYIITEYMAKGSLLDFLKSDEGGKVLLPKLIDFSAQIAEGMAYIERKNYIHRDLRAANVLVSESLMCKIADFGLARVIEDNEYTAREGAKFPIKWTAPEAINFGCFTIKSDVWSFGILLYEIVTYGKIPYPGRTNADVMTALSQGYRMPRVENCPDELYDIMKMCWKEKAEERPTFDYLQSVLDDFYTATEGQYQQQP
Chain of UniProt O15075 (whole entry, looked up): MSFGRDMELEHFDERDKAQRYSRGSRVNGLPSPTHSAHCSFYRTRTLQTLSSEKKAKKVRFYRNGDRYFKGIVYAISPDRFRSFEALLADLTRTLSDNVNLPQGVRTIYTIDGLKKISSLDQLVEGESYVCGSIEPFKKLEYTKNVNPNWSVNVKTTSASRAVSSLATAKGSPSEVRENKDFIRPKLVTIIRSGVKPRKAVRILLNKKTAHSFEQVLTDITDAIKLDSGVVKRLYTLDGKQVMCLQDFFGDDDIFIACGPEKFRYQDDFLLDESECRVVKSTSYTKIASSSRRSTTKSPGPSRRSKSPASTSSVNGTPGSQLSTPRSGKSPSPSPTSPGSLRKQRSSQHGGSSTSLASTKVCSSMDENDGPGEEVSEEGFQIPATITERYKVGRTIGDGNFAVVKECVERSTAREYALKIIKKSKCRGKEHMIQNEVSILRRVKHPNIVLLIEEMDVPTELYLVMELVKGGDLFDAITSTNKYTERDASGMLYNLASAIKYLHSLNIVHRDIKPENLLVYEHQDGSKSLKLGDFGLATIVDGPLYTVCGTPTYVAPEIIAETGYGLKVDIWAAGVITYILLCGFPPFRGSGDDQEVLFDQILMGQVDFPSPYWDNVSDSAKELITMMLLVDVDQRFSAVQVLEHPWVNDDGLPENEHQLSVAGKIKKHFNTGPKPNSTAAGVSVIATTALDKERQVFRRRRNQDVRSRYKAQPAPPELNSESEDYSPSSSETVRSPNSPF
Chain of UniProt Q6P2M8 (whole entry, looked up): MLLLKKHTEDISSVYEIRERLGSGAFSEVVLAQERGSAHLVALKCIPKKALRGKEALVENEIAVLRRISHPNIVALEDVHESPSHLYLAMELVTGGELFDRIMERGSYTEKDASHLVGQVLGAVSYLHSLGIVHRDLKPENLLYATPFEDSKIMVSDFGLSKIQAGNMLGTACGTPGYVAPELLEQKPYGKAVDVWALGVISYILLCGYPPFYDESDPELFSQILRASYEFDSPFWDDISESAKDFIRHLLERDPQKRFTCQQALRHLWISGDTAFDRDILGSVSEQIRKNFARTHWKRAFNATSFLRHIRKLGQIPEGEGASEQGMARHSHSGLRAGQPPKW
Chain of UniProt Q13470 (whole entry, looked up): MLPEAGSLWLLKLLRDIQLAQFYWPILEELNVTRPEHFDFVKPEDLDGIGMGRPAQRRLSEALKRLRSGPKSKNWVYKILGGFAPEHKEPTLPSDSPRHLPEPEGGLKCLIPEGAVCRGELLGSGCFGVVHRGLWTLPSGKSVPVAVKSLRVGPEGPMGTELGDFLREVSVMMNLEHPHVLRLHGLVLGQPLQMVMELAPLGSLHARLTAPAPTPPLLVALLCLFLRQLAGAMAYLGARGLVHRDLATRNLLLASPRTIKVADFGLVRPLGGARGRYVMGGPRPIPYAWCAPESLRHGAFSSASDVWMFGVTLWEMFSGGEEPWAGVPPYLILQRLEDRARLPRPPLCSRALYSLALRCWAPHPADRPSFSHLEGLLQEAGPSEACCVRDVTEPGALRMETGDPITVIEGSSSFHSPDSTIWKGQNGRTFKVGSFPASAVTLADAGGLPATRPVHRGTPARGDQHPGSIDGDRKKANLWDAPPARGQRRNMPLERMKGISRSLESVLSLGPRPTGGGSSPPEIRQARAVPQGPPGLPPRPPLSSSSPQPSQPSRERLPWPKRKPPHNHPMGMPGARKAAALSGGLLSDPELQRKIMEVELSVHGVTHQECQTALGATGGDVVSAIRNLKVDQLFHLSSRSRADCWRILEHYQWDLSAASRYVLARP
Chain of UniProt P51451 (whole entry, looked up): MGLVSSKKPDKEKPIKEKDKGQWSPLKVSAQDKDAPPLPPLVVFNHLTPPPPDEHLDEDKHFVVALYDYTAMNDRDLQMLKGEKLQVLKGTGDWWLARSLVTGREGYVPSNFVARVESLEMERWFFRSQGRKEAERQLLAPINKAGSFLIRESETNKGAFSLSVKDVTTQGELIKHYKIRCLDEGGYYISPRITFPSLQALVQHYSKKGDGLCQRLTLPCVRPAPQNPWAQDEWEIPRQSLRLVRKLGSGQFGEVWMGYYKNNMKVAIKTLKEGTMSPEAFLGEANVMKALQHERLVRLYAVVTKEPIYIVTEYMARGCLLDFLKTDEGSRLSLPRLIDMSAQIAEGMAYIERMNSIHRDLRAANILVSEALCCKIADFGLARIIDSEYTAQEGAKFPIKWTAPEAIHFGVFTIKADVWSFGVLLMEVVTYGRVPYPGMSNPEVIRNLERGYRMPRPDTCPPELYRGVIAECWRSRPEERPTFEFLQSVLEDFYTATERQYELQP
Chain of UniProt Q13237 (whole entry, looked up): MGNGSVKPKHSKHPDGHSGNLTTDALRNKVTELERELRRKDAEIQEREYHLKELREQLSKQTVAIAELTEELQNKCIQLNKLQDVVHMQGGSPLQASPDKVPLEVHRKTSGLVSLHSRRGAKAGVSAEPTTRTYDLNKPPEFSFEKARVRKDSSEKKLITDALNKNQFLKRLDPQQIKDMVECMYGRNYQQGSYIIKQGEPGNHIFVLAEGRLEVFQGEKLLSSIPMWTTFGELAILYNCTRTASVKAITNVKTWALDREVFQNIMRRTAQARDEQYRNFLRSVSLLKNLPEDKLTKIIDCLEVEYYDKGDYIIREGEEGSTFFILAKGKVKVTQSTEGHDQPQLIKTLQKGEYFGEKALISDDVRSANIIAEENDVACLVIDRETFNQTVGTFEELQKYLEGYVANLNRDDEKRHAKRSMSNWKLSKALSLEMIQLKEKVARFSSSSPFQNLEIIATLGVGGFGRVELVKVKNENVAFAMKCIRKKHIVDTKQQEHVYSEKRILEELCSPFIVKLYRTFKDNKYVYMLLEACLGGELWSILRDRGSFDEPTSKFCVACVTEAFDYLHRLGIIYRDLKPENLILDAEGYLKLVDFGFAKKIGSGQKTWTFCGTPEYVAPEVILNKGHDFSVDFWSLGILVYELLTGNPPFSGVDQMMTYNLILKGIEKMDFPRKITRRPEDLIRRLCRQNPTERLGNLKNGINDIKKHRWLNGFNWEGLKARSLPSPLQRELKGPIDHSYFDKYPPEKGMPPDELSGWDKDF
Chain of UniProt Q86YV6 (whole entry, looked up): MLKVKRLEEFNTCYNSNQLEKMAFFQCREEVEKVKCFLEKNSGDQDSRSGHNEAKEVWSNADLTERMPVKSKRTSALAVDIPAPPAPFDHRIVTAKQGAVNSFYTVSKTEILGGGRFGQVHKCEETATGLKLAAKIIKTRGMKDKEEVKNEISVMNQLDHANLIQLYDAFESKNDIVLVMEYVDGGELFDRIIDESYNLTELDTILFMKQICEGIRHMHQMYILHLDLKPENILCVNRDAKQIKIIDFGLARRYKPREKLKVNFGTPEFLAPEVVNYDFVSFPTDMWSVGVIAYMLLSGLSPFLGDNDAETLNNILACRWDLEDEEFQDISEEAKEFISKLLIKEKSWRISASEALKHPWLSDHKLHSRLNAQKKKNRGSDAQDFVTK

Study 1 — concentration: 1 µM; endpoint: remaining binding
Compound: COc1ccc2[nH]c3c4[nH]c5ccc(OC)cc5c4c4c(c3c2c1)C(=O)NC4=O
cGMP-dependent protein kinase 2 (PRKG2, Homo sapiens, UniProt Q13237); competitive binding panel; baseline: vehicle: 0.9%
Dual specificity tyrosine-phosphorylation-regulated kinase 1A (DYRK1A, Homo sapiens, UniProt Q13627); competitive binding panel; baseline: vehicle: 48%
Myosin light chain kinase family member 4 (MYLK4, Homo sapiens, UniProt Q86YV6); competitive binding panel; baseline: vehicle: 49%
Homeodomain-interacting protein kinase 2 (HIPK2, Homo sapiens, UniProt Q9H2X6); competitive binding panel; baseline: vehicle: 64%
5'-AMP-activated protein kinase catalytic subunit alpha-2 (PRKAA2, Homo sapiens, UniProt P54646); competitive binding; AMPK-alpha2: 54%
Tyrosine-protein kinase Blk (BLK, Homo sapiens, UniProt P51451); competitive binding panel; baseline: vehicle: 71%

Study 2 — effect on: enzyme activity; mode: inhibitor; concentration: 0.5 µM; baseline: control; endpoint: remaining activity
Target: Serine/threonine-protein kinase OSR1 (OXSR1, Homo sapiens, UniProt O95747)
Chain of UniProt O95747 (whole entry, looked up): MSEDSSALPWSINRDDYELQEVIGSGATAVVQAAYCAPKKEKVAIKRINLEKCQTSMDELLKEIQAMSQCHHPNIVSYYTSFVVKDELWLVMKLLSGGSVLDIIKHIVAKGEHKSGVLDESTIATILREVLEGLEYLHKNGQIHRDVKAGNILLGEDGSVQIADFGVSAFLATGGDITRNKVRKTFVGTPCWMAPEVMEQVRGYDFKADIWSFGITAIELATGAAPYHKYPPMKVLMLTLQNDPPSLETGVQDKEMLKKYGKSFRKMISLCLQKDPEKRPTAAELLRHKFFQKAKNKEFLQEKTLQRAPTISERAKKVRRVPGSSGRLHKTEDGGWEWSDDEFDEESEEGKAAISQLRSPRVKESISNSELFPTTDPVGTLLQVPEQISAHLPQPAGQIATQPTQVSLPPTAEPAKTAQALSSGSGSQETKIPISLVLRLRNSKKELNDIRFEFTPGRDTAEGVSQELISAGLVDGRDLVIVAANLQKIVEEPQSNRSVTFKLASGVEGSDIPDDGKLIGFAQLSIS
COc1cc2nccc(Oc3ccc(NC(=S)NC(=O)c4ccccc4C)cc3)c2cc1OC: 106%
Cc1nc(-c2ccccc2)c(-c2ccncc2)o1: 102%
Cc1cccc(-c2[nH]c(C(C)(C)C)nc2-c2ccc3c(c2)OCO3)n1: 103%
CNC(=O)c1cc(Oc2ccc(NC(=O)Nc3ccc(Cl)c(C(F)(F)F)c3)cc2)ccn1: 103%
Oc1ccc(-c2nc(-c3ccncc3)c(-c3ccc(F)cc3)[nH]2)cc1: 97.6%
Nc1ncnc2n[nH]c(Nc3ccc(F)cc3)c12: 110%
Cn1sc(=O)n(Cc2ccccc2)c1=O: 91.1%
NCCNc1ncc(C(N)=O)c(Nc2cccc(C(F)(F)F)c2)n1: 104%
COc1ccc(OC)c2c(=S)c3ccccc3[nH]c12: 90.6%
Nc1[nH]nc2nc3ccccc3nc12: 92.7%
O=C(Nc1cccc(Nc2cc(Nc3cccc(C(F)(F)F)c3)ncn2)c1)C1CC1: 110%
Cn1c2ccccc2c2c3c(c4c5ccccc5n(CCC#N)c4c21)CNC3=O: 102%
N#CC(C#N)=C(N)/C(C#N)=C/c1ccc(O)cc1: 72.2%
COc1cc2ncnc(Nc3ccc(F)c(Cl)c3)c2cc1OCCCN1CCOCC1: 101%

Study 3 — route: subcutaneous; dose: 0.3 mg/kg/day DON equivalent; time: 5 days; direction: higher = more metabolite; endpoint: metabolite peak area
SMILES: CC(=O)N[C@@H](Cc1c[nH]c2ccccc12)C(=O)N[C@@H](CCC(=O)C=[N+]=[N-])C(=O)OC(C)C
UPLC-MS/MS, refers to: valine; C57BL/6 CES1-/- mice, EL4 tumour: 1.56e+09 a.u. and 2.41e+09 a.u. and 1.7e+09 a.u. and 1.99e+09 a.u. and 1.68e+09 a.u. and 1.85e+09 a.u.
UPLC-MS/MS metabolomics, refers to: erythronate; EL4, C57BL/6 CES1-/- mice, EL4 tumour, tumour: 3.76e+08 a.u. and 3.53e+08 a.u. and 2.55e+08 a.u. and 3.97e+08 a.u. and 2.18e+08 a.u. and 3.25e+08 a.u.
UPLC-MS/MS, refers to: ascorbic acid 3-sulfate; C57BL/6 CES1-/- mice, EL4 tumour: 4.86e+06 a.u. and 2.93e+06 a.u. and 1.94e+06 a.u. and 2.35e+06 a.u. and 2.86e+06 a.u. and 3.66e+06 a.u.
UPLC-MS/MS metabolomics, refers to: galactitol; EL4, C57BL/6 CES1-/- mice, EL4 tumour, tumour: 1.91e+06 a.u. and 3.58e+06 a.u. and 2.62e+06 a.u. and 3.54e+06 a.u. and 2.85e+06 a.u. and 2.28e+06 a.u.
UPLC-MS/MS metabolomics, refers to: dihydrobiopterin; EL4, C57BL/6 CES1-/- mice, EL4 tumour, tumour: 587000 a.u. and 543000 a.u. and 618000 a.u. and 395000 a.u. and 623000 a.u. and 503000 a.u.
UPLC-MS/MS metabolomics, refers to: creatinine; EL4, C57BL/6 CES1-/- mice, EL4 tumour, tumour: 8.81e+07 a.u. and 1.48e+08 a.u. and 2.37e+08 a.u. and 6.86e+07 a.u. and 1.14e+08 a.u. and 1.78e+08 a.u.

Study 4 — effect on: cell-free assay; method: competition with immobilised ligand; concentration: 1 µM; endpoint: remaining binding
SMILES: COc1ccc2c(c1)O[C@@H](c1ccc(OC)c(OC)c1)C[C@H]2NC(=O)C1(c2ccc3c(c2)OC(F)(F)O3)CC1
Serine/threonine-protein kinase 4 (STK4, Homo sapiens, UniProt Q13043): 79%
Tyrosine-protein kinase Fyn (FYN, Homo sapiens, UniProt P06241): 96%
Tyrosine-protein kinase Lyn (LYN, Homo sapiens, UniProt P07948): 100%
Calcium/calmodulin-dependent protein kinase type 1B (PNCK, Homo sapiens, UniProt Q6P2M8): 100%
Serine/threonine-protein kinase DCLK1 (DCLK1, Homo sapiens, UniProt O15075): 82%
RAF proto-oncogene serine/threonine-protein kinase (RAF1, Homo sapiens, UniProt P04049): 100%
Non-receptor tyrosine-protein kinase TNK1 (TNK1, Homo sapiens, UniProt Q13470): 100%

Excerpt of the above (study 4):
Serine/threonine-protein kinase DCLK1 (DCLK1, Homo sapiens, UniProt O15075): 82%
Calcium/calmodulin-dependent protein kinase type 1B (PNCK, Homo sapiens, UniProt Q6P2M8): 100%
RAF proto-oncogene serine/threonine-protein kinase (RAF1, Homo sapiens, UniProt P04049): 100%
Tyrosine-protein kinase Lyn (LYN, Homo sapiens, UniProt P07948): 100%
Tyrosine-protein kinase Fyn (FYN, Homo sapiens, UniProt P06241): 96%
